Measurements pooled from the literature.
Protocols differ between the studies behind these lines.

CC(C)[C@@H](C)Nc1nc(-c2cccs2)nc(Cl)c1-c1c(F)cc(O)cc1F
EC50 (Schistosoma mansoni; worm motility; adult worms ex vivo; 24 h): 650 nM

C[C@@H](CO)CCC[C@@H](C)[C@H]1CC[C@H]2[C@@H]3CC=C4C[C@@H](O)CC[C@]4(C)[C@H]3CC[C@]12C
EC50 (Human rotavirus; Caco-2, DS-1): 450 nM

CC(C)(C)CNc1nc(-c2cccs2)nc(Cl)c1-c1c(F)cc([N+](=O)[O-])cc1F
EC50 (Schistosoma mansoni; worm motility; adult worms ex vivo; 24 h): < 300 nM

CCOC(=O)C1=C(CN2CCC[C@@H]2C(=O)Nc2ccc(B(O)O)cc2)NC(c2nccs2)=N[C@H]1c1ccc(F)cc1Br
EC50 (Hepatitis B virus; HBV DNA level; HepAD38; 6 days): 1 nM

O=C1CCc2cc(OCCCCc3nnnn3C3CCCCC3)ccc2N1
inhibition (Nedd8-cullin1 interaction; neddylation, AlphaScreen; 100 µM): 11.2%

C[C@H](CCCC(C)(C)O)[C@H]1CC[C@H]2[C@@H]3CC=C4C[C@@H](O)CC[C@]4(C)[C@H]3CC[C@]12C
EC50 (Human rotavirus; MA104, DS-1): 270 nM

CCN(CC)C(=O)Nc1ccc(OCC(O)CNC(C)(C)C)c(C(C)=O)c1 (centres unmarked)
inhibition (Nedd8-cullin1 interaction; neddylation, AlphaScreen; 100 µM): -12.7%

COC(=O)N[C@H](C(=O)N1CCC[C@H]1c1ncc(-c2ccc(-c3ccc(-c4cnc([C@@H]5CCCN5C(=O)[C@@H](NC(=O)OC)C(C)C)[nH]4)cc3)cc2)[nH]1)C(C)C
EC50 (human coronavirus; viral replication; MRC5): > 29000 nM

CCOC(=O)C1=C(CN2CCC[C@@H]2C(=O)Nc2cccc(B(O)O)c2)NC(c2nccs2)=N[C@H]1c1ccc(F)cc1Br
EC50 (Hepatitis B virus; HBV DNA level; HepAD38; 6 days): 38 nM

CC(C)[C@@H](C)Nc1nc(-c2cccs2)nc(Cl)c1-c1ccccc1F
EC50 (Schistosoma mansoni; worm motility; adult worms ex vivo; 24 h): 590 nM

Cc1cc(OC(C)C)ccc1C(=O)C(C)(C)NC(=O)c1sccc1C
EC50 (Botrytis squamosa; mycelial growth; PSA medium; 20 °C, suspension concentrate 400 g/L): 0.74 µg/mL

Some of these lines once more:
C[C@@H](CO)CCC[C@@H](C)[C@H]1CC[C@H]2[C@@H]3CC=C4C[C@@H](O)CC[C@]4(C)[C@H]3CC[C@]12C
EC50 (Human rotavirus; Caco-2, DS-1): 450 nM

CC(C)(C)CNc1nc(-c2cccs2)nc(Cl)c1-c1c(F)cc([N+](=O)[O-])cc1F
EC50 (Schistosoma mansoni; worm motility; adult worms ex vivo; 24 h): < 300 nM
